Experimental data gathered from unrelated publications.
Numbered parts are unrelated; each lists some results of a single study.
Chain of UniProt Q00535 (whole entry, looked up): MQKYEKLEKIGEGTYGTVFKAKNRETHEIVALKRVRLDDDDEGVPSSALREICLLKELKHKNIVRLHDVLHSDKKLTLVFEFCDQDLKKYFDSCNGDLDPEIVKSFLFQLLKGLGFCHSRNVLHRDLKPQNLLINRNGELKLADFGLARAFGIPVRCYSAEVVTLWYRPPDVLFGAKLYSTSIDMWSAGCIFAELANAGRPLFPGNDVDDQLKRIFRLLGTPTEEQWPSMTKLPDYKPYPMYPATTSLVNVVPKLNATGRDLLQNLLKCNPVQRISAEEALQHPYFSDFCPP
Chain of UniProt Q9NYL2 (whole entry, looked up): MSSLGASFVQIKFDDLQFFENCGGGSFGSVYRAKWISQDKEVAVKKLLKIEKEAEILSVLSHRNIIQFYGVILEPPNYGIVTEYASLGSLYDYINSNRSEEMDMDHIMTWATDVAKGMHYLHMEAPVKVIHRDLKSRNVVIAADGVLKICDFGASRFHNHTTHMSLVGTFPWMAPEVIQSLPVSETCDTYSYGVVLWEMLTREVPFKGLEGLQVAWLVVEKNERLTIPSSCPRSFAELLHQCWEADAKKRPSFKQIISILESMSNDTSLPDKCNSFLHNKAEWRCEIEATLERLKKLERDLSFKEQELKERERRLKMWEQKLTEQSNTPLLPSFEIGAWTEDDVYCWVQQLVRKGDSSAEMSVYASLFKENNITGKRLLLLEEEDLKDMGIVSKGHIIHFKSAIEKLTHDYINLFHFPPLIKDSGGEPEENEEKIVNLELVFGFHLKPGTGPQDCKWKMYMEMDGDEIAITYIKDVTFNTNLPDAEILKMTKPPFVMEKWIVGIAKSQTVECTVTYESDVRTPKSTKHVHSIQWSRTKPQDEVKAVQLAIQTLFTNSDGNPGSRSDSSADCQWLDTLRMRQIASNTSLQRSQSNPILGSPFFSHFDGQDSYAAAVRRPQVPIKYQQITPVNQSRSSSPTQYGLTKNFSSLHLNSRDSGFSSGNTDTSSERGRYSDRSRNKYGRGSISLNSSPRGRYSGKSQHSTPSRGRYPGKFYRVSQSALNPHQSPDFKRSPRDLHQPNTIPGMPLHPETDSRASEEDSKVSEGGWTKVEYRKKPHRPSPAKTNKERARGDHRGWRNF
Chain of UniProt P49674 (whole entry, looked up): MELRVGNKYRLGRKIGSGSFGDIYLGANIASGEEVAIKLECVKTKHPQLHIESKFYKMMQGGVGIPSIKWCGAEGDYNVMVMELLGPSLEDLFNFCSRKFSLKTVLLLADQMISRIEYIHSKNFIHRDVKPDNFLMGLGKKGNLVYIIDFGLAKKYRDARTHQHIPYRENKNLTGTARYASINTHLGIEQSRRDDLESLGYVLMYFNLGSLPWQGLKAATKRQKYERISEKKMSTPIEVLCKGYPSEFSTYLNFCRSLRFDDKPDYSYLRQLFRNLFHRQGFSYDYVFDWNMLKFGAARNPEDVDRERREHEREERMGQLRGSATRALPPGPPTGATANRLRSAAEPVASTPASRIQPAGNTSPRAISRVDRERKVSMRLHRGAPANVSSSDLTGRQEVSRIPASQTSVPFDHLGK
Chain of UniProt P49760 (whole entry, looked up): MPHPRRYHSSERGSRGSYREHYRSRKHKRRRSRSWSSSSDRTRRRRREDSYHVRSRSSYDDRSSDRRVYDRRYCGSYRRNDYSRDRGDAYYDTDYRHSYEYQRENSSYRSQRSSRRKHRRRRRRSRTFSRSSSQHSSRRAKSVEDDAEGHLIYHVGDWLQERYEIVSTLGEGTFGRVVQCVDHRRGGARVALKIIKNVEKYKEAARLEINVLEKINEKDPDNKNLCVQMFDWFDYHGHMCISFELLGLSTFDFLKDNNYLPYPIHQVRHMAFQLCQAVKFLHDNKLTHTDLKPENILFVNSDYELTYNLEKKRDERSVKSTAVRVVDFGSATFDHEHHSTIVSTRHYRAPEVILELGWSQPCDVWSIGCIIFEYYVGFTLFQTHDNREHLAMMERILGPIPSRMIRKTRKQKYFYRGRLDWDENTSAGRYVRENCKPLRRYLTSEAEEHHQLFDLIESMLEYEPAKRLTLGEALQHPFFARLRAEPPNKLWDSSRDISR
Chain of UniProt O96013 (whole entry, looked up): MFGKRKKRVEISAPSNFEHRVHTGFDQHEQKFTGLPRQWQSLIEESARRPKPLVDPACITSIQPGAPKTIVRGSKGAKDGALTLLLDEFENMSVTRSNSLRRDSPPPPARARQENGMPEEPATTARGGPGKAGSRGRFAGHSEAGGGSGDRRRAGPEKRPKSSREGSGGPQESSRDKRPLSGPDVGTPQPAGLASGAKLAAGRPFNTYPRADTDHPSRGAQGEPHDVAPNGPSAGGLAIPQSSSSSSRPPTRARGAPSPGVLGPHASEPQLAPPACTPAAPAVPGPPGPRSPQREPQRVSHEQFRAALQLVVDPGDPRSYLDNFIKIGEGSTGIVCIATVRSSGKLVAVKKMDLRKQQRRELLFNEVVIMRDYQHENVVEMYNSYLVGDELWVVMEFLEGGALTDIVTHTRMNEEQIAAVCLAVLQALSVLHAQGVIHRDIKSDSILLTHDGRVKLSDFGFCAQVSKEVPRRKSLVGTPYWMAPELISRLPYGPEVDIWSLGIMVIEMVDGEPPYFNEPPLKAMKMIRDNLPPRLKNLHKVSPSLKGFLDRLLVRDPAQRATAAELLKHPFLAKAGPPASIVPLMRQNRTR
Chain of UniProt O15146 (whole entry, looked up): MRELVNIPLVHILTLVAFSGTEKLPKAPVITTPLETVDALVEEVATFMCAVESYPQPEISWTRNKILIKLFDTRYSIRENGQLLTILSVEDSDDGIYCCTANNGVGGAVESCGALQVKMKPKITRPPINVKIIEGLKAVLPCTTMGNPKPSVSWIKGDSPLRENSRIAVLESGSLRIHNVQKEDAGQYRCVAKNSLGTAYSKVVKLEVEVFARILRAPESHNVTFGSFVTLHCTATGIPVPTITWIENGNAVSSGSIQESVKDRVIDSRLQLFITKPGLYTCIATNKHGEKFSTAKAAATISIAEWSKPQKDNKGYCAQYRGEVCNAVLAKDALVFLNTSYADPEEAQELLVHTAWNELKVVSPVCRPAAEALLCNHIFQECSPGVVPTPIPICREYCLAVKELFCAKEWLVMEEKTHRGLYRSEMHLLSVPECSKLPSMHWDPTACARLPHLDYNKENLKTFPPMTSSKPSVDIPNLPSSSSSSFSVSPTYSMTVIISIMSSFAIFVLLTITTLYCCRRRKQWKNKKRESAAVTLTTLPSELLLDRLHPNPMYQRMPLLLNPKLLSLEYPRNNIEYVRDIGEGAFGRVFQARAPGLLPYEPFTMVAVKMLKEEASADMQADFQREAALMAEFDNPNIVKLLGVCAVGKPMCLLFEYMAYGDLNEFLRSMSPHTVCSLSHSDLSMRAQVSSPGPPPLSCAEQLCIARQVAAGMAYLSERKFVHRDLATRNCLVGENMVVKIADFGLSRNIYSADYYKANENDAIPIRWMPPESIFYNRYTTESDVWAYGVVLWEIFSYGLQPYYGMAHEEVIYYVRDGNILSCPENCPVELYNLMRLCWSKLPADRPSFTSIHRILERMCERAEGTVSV
Chain of UniProt P54753 (whole entry, looked up): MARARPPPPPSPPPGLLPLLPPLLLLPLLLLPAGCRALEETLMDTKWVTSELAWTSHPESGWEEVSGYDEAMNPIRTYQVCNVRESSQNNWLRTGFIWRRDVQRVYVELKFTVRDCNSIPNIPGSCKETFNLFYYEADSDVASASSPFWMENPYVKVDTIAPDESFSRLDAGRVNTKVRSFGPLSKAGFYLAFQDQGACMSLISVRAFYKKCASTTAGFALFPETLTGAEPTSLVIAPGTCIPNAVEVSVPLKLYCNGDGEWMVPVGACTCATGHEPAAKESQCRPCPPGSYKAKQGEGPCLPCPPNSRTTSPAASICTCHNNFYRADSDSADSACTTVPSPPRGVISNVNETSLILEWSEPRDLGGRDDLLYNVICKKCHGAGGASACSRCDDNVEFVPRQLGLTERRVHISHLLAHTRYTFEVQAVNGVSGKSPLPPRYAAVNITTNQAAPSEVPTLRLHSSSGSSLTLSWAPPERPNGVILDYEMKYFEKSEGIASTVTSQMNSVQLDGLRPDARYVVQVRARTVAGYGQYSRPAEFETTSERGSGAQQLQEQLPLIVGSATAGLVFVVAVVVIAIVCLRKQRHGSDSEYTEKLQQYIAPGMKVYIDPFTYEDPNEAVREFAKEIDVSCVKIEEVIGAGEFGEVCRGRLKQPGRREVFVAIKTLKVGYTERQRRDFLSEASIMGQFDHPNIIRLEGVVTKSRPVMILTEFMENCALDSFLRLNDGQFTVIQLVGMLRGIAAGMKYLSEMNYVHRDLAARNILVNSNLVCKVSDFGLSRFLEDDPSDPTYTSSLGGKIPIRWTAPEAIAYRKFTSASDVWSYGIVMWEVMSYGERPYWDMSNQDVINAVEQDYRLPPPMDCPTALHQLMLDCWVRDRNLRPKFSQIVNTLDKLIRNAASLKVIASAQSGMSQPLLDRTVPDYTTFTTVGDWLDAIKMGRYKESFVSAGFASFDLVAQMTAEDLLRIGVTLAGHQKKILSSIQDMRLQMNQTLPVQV
Chain of UniProt P48730 (whole entry, looked up): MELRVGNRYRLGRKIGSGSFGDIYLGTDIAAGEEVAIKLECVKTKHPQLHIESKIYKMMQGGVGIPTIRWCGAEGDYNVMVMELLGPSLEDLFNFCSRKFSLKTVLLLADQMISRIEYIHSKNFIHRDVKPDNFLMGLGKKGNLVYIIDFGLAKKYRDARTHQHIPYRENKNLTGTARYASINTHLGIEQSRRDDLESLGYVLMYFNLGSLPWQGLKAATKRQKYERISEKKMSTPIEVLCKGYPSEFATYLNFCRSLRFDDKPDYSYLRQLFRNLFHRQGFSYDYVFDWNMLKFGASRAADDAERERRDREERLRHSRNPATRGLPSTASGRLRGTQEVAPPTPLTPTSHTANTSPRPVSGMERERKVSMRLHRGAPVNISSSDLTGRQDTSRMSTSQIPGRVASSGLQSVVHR

Block 1
Target: Diamine acetyltransferase 1 (Homo sapiens, UniProt P21673)
Action: inhibitor
Concentration: 10 µM
Baseline: control
Residues (P21673 1-171): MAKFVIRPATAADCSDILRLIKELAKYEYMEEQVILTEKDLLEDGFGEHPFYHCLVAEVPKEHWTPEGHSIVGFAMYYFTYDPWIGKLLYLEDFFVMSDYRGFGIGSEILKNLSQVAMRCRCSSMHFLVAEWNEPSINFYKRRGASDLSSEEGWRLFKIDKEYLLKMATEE
Compound	remaining activity
CC[C@H]1CN2CCc3c([nH]c4ccccc34)[C@H]2C[C@@H]1/C(=C\OC)C(=O)OC	90.5%
CC(C)=CCOc1c2occc2cc2ccc(=O)oc12	95.3%
CC1(C)[C@H](C(=O)O[C@H](C#N)c2cccc(Oc3ccccc3)c2)[C@@H]1C=C(Br)Br	101%
COC(=O)C1=CCCN(C)C1	105%
CC1(C)OC1COc1c2occc2cc2ccc(=O)oc12 (stereo not shown)	103%
Cc1c([C@H](C)[C@@H]2NC[C@@H](C)C[C@H]2O)ccc2c1C[C@H]1[C@H]2CC=C2C[C@@H](O)CC[C@@]21C	113%
O=Cc1ccccc1	85.4%

Block 2
SMILES: N/C(=N\[N+](=O)[O-])N/N=C\c1ccc(-c2cccc([N+](=O)[O-])c2)o1
Effect on: enzyme activity
Action: inhibitor
Concentration: 0.5 µM
Baseline: control
target	remaining activity
Cyclin-dependent kinase 5, with p35 (CDK5, Homo sapiens, UniProt Q00535)	89.2%
Serine/threonine-protein kinase PAK 5 (PAK5, Homo sapiens, UniProt Q9P286)	97%
Vascular endothelial growth factor receptor 1 (FLT1, Homo sapiens, UniProt P17948)	97.6%
Dual specificity protein kinase CLK2 (CLK2, Homo sapiens, UniProt P49760)	88.3%
Tyrosine-protein kinase JAK1 (JAK1, Homo sapiens, UniProt P23458)	102%
Casein kinase I isoform epsilon (CSNK1E, Homo sapiens, UniProt P49674)	91%
Casein kinase I isoform delta (CSNK1D, Homo sapiens, UniProt P48730)	99.8%
Serine/threonine-protein kinase PAK 6 (PAK6, Homo sapiens, UniProt Q9NQU5)	99%
Tyrosine-protein kinase Yes (YES1, Homo sapiens, UniProt P07947)	95.6%
Serine/threonine-protein kinase PAK 4 (PAK4, Homo sapiens, UniProt O96013)	95.3%
Activin receptor type-1-like (ACVRL1, Homo sapiens, UniProt P37023)	106%
Mitogen-activated protein kinase kinase kinase 20 (MAP3K20, Homo sapiens, UniProt Q9NYL2)	98%
SRSF protein kinase 1 (SRPK1, Homo sapiens, UniProt Q96SB4)	94.9%
Dual specificity tyrosine-phosphorylation-regulated kinase 1A (DYRK1A, Homo sapiens, UniProt Q13627)	95.8%
Ephrin type-B receptor 3 (EPHB3, Homo sapiens, UniProt P54753)	91.7%
Tyrosine-protein kinase Fes/Fps (FES, Homo sapiens, UniProt P07332)	101%
Calcium/calmodulin-dependent protein kinase kinase 1 (CAMKK1, Homo sapiens, UniProt Q8N5S9)	106%
Muscle, skeletal receptor tyrosine-protein kinase (MUSK, Homo sapiens, UniProt O15146)	94.4%

Block 3
Cell line: HEK-293T-ACE2-TMPRSS2
Technique: cell count
Concentration: concentration not given
SMILES	viability [%]
Cn1nccc1C(=O)N1CCc2cc(-c3csc(C4CC4)n3)ccc21	76
CC1CCN(C(c2ccccc2)c2oc3ccccc3c2NC(=O)c2ccco2)CC1 (stereo not shown)	89
CC(C)CC(=O)N1C2CCC1c1cnc(-c3ccc(F)cc3)nc1C2 (stereo not shown)	69
OC(c1ccccn1)C1CCN(c2ncnc3[nH]ccc23)CC1 (stereo not shown)	98
O=C(Nc1nc2c(s1)CN(Cc1ccccc1)CC2)c1ccc2ccccc2c1	69
CCOc1ccc(NC(=O)Cn2ncc(Cl)c(Cl)c2=O)c([N+](=O)[O-])c1	220
CCCCOc1ccc(C(=O)Nc2nc3ccc(S(=O)(=O)N(C)C)cc3s2)cc1	74
CSc1nnc(Sc2ncc([N+](=O)[O-])s2)s1	72
Cc1cc(C(=O)N2CCCC(C(=O)Nc3cccc(-c4cc5ccccc5[nH]4)c3)C2)nn1C (stereo not shown)	76
Cc1ccc(NC(=O)c2nc(S(=O)(=O)Cc3ccccc3)ncc2Cl)cc1C	84
Cc1cc2c3c([nH]c2cc1S(=O)(=O)N1CCN(Cc2ccccc2)CC1)CCCC3=O	79
NC(=O)c1ccc(N2CCN(Cc3ccc(-c4ccccn4)cc3)CC2)nc1	80
CCOC(=O)C1CCN(S(=O)(=O)c2ccc3c(c2)N(C(C)=O)CCCS3)CC1	74
CCOC(=O)c1c(CN(CC)CC)n(-c2ccccc2)c2ccc(O)cc12	73
Cc1ccc(-n2nnc(C(=O)N3CCN(Cc4ccccc4)CC3)c2-c2cccnc2)cc1	66
Cc1ccc(S(=O)(=O)N2CCCCC2)cc1NC(=O)CN1CC(=O)Oc2ccccc21	67
O=S(=O)(Nc1cccc2nc[nH]c12)c1ccc(Oc2ccccc2)cc1	70
COc1cc(/C=C2/CCS(=O)(=O)c3ccccc3C2=O)cc(OC)c1	84
O=C(NCc1ccccc1)C1CCCN(C(=O)C2Sc3ccccc3NC2=O)C1 (stereo not shown)	74
Cc1nc2ccccc2n1CC(O)COc1ccc(C(C)(C)C)cc1 (stereo not shown)	74
CCc1ccc(S(=O)(=O)N2Cc3nn4c(C)c(C)c(C)nc4c3C2)cc1	108
Cc1c(C(=O)OCC(=O)NC(=O)NCc2ccco2)oc2c1ccc1ccccc12	83
Cc1ccc(-c2cn(CC3CCN(c4cc(C)nc(N)n4)CC3)nn2)cc1	67
Cc1ccc(S(=O)(=O)c2ccc(C(=O)NC3CCN(Cc4ccccc4)CC3)cn2)cc1C	81
CCC(CC)n1ncc(C)c1NC(=O)c1cc(Cl)ccc1C	80

Block 4
Cell line: HaCaT
Concentration: 100 µM
Time: 18 h
Structure (SMILES)	viability [%]
N[C@@H](Cc1ccc(N(CCCl)CCCl)cc1)C(=O)O	83.6
Cc1ccc(/N=C/N(C)/C=N/c2ccc(C)cc2C)c(C)c1	34.2
CCC(=O)O[C@H]1CC[C@H]2[C@@H]3CCC4=CC(=O)CC[C@]4(C)[C@H]3CC[C@]12C	46.8
Oc1cc(Cl)ccc1Oc1ccc(Cl)cc1Cl	17.2
c1ccc(NNc2ccccc2)cc1	59

For quick reference, copied from above (block 2):
target	remaining activity
Serine/threonine-protein kinase PAK 4 (PAK4, Homo sapiens, UniProt O96013)	95.3%
Activin receptor type-1-like (ACVRL1, Homo sapiens, UniProt P37023)	106%
Mitogen-activated protein kinase kinase kinase 20 (MAP3K20, Homo sapiens, UniProt Q9NYL2)	98%
SRSF protein kinase 1 (SRPK1, Homo sapiens, UniProt Q96SB4)	94.9%
Dual specificity tyrosine-phosphorylation-regulated kinase 1A (DYRK1A, Homo sapiens, UniProt Q13627)	95.8%
Ephrin type-B receptor 3 (EPHB3, Homo sapiens, UniProt P54753)	91.7%
Tyrosine-protein kinase Fes/Fps (FES, Homo sapiens, UniProt P07332)	101%
